Published values collected from several papers.
A part holds a random share of what one study measured. Values joined by “and” are separate records of one study, mostly repeats; a detail may differ.

Block 1
Organism: SARS-CoV-2
Read-out: cytopathic effect
Cells: Vero E6
Concentration: 10 µM
`Cc1cc(C)cc(N2C(=O)CC(Sc3nnc[nH]3)C2=O)c1` (stereo not drawn) gave an inhibition of 11.4%.
The inhibition of `O=[N+]([O-])C(Br)(CO)CO` is reported as 17.6%.
The inhibition of `CCN(CC)C(=S)SSC(=S)N(CC)CC` is reported as -21.6%.
The inhibition of `Cc1ccc(-n2sc(=O)n(Cc3ccc(F)cc3)c2=O)cc1` is reported as -4.1% and 1.4%.
With `CSc1ccc(C(=O)c2[nH]c(=O)[nH]c2C)cc1` the inhibition was 5.8%.

Block 2
Cell line: HEK-293T
Organism: VSV pseudotyped with SARS-CoV-2 spike
Concentration: 10 µM
Time: 16 h
`O=C1CN(/N=C/c2ccc([N+](=O)[O-])o2)C(=O)N1` has a pseudovirus infection of 72.7%.
`CC1=C(C(=O)O)N2C(=O)[C@@H](NC(=O)[C@H](N)c3ccccc3)[C@H]2SC1` gave a pseudovirus infection of 87.4%.
With `OC(Cn1cncn1)(Cn1cncn1)c1ccc(F)cc1F` the pseudovirus infection was 109%.

Block 3
Target: Myc proto-oncogene protein, bHLH-zipper, MAX partner unstated (MYC, Homo sapiens, UniProt P01106, residues 368-449)
Chain of UniProt P01106 (368-449, looked up): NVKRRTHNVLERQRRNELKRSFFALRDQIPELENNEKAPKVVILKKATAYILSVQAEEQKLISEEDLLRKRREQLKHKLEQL
Method: protein-binding microarray
Molecule type: double-stranded DNA, one strand shown
Medium: in vitro
Concentration: not given
Setting: k-mer, scored over probes, only values ≥0.25
Reading: higher = stronger binding
The E-score of `CCCAACCG` is reported as 0.261.
The E-score of `CAGGCACG` is reported as 0.308.
`AAAGCACA` has an E-score of 0.291.
With `AGCATGAT` the E-score was 0.256.
With `ATGCGTTG` the E-score was 0.279.
With `ATGTGCAC` the E-score was 0.362.
`CCACGTCC` has an E-score of 0.308.
`CGTGCTTC` has an E-score of 0.359.

Block 4
Target: RNA binding protein fox-1 homolog 2, RRM domain, GST-SBP tag (RBFOX2, Homo sapiens, UniProt O43251-10, residues 100-194)
Method: RNA Bind-n-Seq
Molecule type: RNA
Medium: in vitro
Concentration: 365 nM
Setting: natural RNA segment, single round, ends assumed
Reference: no-protein control
Reading: higher = stronger binding
Constant ends, left off below: GGGAGUUCUACAGUCCGACGAUC … UGGAAUUCUCGGGUGCCAA
Residues (chain): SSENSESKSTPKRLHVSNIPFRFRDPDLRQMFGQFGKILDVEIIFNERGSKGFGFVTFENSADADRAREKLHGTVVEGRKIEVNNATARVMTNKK
`CUGAUGGCUGGCAUUUUUAAUAUAGGCAGUGAAAGUGACUUUAGAAGCAUGGGAUGAAAUAGAGGGAAGAAGAGUUUUUAUUUUCUGGCCUUUAAAAAGUGCCUAGUAGG`: “RBNS enrichment (R)” 1.54.
Under “RBNS enrichment (R)”, `UAUCUGUAUCUAAACCAGAAUAUUUUGGUCAAAUAUAAAACAAUAAUAAAAAAAGUUCUGAUGUCAUAGUGUGGGAUAGGGGCAAUCCCAAGGAAAGGUUAUGGGGUAUG` is recorded as 0.863.
For `UCCCUAAUGGGAUUUUUUUUACCUGUUCCUGGGCCCAUUACAGAGCCUCUGAAGUUUGCAGUAUGCUUUCAAAUGAAAUAAUAUACUUCCAUUGAUUCAGGAAGCAGAUU`, “RBNS enrichment (R)” read 0.452.
Under “RBNS enrichment (R)”, `AGGGCCCACACUUAGAAGGACCCCACACUUGGUUCAAGGCUCUGCUAUAGCGGAAAUUCUUAAUAAUGUUUGAAGAAGGGCCCCAUGAUUUCAUUUUGUGCUGAGCCCUC` is recorded as 0.558.
For `CUGUUAGAAUGAGCUAAGGGAGACUGUUUUGCGUCCUGAGUUUCUAUUUCAUUGGAUCAGGAAAUCAUCCACUUGCCAACCAGGCUCCAGUACUGGGAAACAUGGAAUGU`, “RBNS enrichment (R)” read 1.98.
Under “RBNS enrichment (R)”, `AGAGGAGUCAGAGAGAGAGAGGAGUCAGAAGGUGGCCGGAGUUAUCAUUGGGUCCCCUGAGCUCCAUGAAGGACCCUCUGUUGUCCCCUUGAUGAUUUAUCAGGCAUGAG` is recorded as 0.77.
For `CUUCUGUUCCUUGUAUCUGUGGAAGUCAAGUAGCCCUUCUCAAAAAUGAGAAGCCAAGCUUUAAAUAGCAAACUACAGGGUAUUAAAAGACUAACUCUUCAGUUAAGAAC`, “RBNS enrichment (R)” read 0.303.
Under “RBNS enrichment (R)”, `AUGGACCUAUCAAGAAUAUUAAAAAGCUUGGAAAUACCCUAUCCACUUUUGAAAAAUUAGAAUUCCUUUGCAUUCAGCAUGGACUCAGCCAGGAAUCUAUGGAGGAUUUU` is recorded as 10.1.

Block 5
Target: Replicase polyprotein 1ab, polymerase (rep, Severe acute respiratory syndrome coronavirus 2, UniProt P0DTD1)
Read-out: enzyme activity
Mode: inhibitor
Concentration: 20 µM
The inhibition of `CN1CCN(C(=O)c2cc3cc(Cl)ccc3[nH]2)CC1` is reported as -4.41%.
`CCC[C@H](Nc1nc(-c2ccc(NC(=O)NCC)c(OC)c2)ncc1C)c1cccnc1` has an inhibition of 1.46%.
`O=c1cc(-c2ccccc2)oc2cc(O)cc(O)c12` has an inhibition of 1.75%.
`COC(=O)CC1CC(c2ccc(O)cc2)=NO1` (stereo not drawn) has an inhibition of -2.15%.
With `C=CCNc1c(O)cc2c(O)c1C[C@@H](C)C[C@H](OC)[C@H](O)[C@@H](C)/C=C(\C)[C@H](OC(N)=O)[C@@H](OC)/C=C\C=C(/C)C(=O)N2` the inhibition was 1.09%.
The inhibition of `O=S(=O)(O)CCCS(=O)(=O)O` is reported as 1.5%.
`O=c1[nH]c(=O)n([C@H]2C[C@H](O)[C@@H](CO)O2)cc1C(F)(F)F` has an inhibition of -4.08%.
With `COc1ncc(-c2ccc3c(Nc4cc(Oc5cc(F)cc(F)c5)cc(C(=O)O)c4)c(S(=O)(=O)NC4CC4)cnc3c2)c(OC)n1` the inhibition was 65.8%.
`CC[C@H]1CN2CC[C@H]1C[C@@H]2[C@@H](O)c1ccnc2ccc(OC)cc12` has an inhibition of 0.53%.
`CC(=O)N[C@H]1[C@H]([C@H](O)[C@H](O)CO)OC(O)(C(=O)O)C[C@@H]1O` (stereo partly drawn) has an inhibition of -0.14%.
The inhibition of `CCOC(=O)c1c(CSc2ccccc2)n(C)c2cc(Br)c(O)c(CN(C)C)c12` is reported as 2.05%.
With `CC(C)c1cc(-c2ccc(F)c3ccccc23)nc(N)n1` the inhibition was 5.59%.
`O=C(O)c1ccccc1S` has an inhibition of -2.44%.
With `CN1CCN(C(=O)O[C@H]2c3nccnc3C(=O)N2c2ccc(Cl)cn2)CC1` the inhibition was -1%.
For `Nc1nc2cc(-c3ccc4ncc(C(=O)N5CCOCC5)n4c3)ccc2o1`, the inhibition was 2.7%.
`CCCN(CCC)[C@@H]1CCc2c(OC)cccc2[C@@H]1C` has an inhibition of -2.53%.
For `Nc1nc(N)c2nc(CNc3ccc(C(=O)N[C@@H](CCC(=O)O)C(=O)O)cc3)cnc2n1`, the inhibition was 0.36%.
The inhibition of `C=C(C)[C@@H]1CC[C@]2(C(=O)O)CC[C@]3(C)[C@H](CC[C@@H]4[C@@]5(C)CC[C@H](OC(=O)CC(C)(C)C(=O)O)C(C)(C)[C@@H]5CC[C@]43C)[C@@H]12` is reported as 1.92%.
The inhibition of `Oc1ccc(Cl)c2c1CCC2` is reported as 2.2%.
The inhibition of `C[n+]1ccc(C(=O)NCc2ccccc2)cc1` is reported as 3.61%.
`O=P(O)(O)C(O)(Cc1cnc2ccccn12)P(=O)(O)O` has an inhibition of 1.07%.
For `O=C(Nc1cccc(Cl)c1)Nc1ncc(CCNc2ncnc3ccsc23)s1`, the inhibition was 5.63%.
With `CC(C)NCC(O)c1ccc([N+](=O)[O-])cc1` (stereo not drawn) the inhibition was -1.85%.
The inhibition of `NCCc1cc(O)c(O)cc1O` is reported as 34.9%.
`C=C1C(=O)[C@]23[C@H](O)[C@H]1CC[C@H]2[C@@]12CO[C@]3(O)[C@@H](O)[C@@H]1C(C)(C)CC[C@@H]2O` has an inhibition of -7.46%.

Block 6
Target: Interferon regulatory factor 5, full length, phosphomimetic (IRF5, Homo sapiens, UniProt Q13568-2, residues 1-514, S451D/S453D/S456D/S462D)
Method: protein-binding microarray
Molecule type: double-stranded DNA, one strand shown
Medium: in vitro
Concentration: 940 nM top
Setting: 60-bp whole probe
Added: salmon DNA 0.4 mg/ml
Reference: random background probes
Reading: higher = stronger binding
Constant ends, left off below: GCCTAGCAC … GTCTTGATTCGCTTGACGCTGCTG
For `TCACCTCCAGGTTCTCTGACTGTGCTA`, “fitted relative affinity” read 0.13 z-score.
Under “fitted relative affinity”, `TTAGATATCAGTCGCGATTAGTGCTAG` is recorded as 0.384 z-score.
For `TTAGATTTCCGACTGGATTAGTGCTAG`, “fitted relative affinity” read -0.228 z-score.
`TGTCCTTTCTCCATGGGTATGTGCTAG` — result for “fitted relative affinity”: 0.709 z-score.
`GACGGTAGCCTTCTCCTGACGTGCTAG`: “fitted relative affinity” 0.0332 z-score.
`AAGAAGCTTCCTCTCTGCCAGTGCTAG` — result for “fitted relative affinity”: -0.115 z-score.
Under “fitted relative affinity”, `GACGGTATCGGTCTCGGGAGGTGCTAG` is recorded as 7.6 z-score.
`GACGGTTTCCTTTTCCTGATGTGCTAG` — result for “fitted relative affinity”: 1.99 z-score.

A few entries again (block 5):
`O=c1cc(-c2ccccc2)oc2cc(O)cc(O)c12` has an inhibition of 1.75%.
`COC(=O)CC1CC(c2ccc(O)cc2)=NO1` (stereo not drawn) has an inhibition of -2.15%.
With `C=CCNc1c(O)cc2c(O)c1C[C@@H](C)C[C@H](OC)[C@H](O)[C@@H](C)/C=C(\C)[C@H](OC(N)=O)[C@@H](OC)/C=C\C=C(/C)C(=O)N2` the inhibition was 1.09%.
The inhibition of `O=S(=O)(O)CCCS(=O)(=O)O` is reported as 1.5%.
`O=c1[nH]c(=O)n([C@H]2C[C@H](O)[C@@H](CO)O2)cc1C(F)(F)F` has an inhibition of -4.08%.
With `COc1ncc(-c2ccc3c(Nc4cc(Oc5cc(F)cc(F)c5)cc(C(=O)O)c4)c(S(=O)(=O)NC4CC4)cnc3c2)c(OC)n1` the inhibition was 65.8%.
`CC[C@H]1CN2CC[C@H]1C[C@@H]2[C@@H](O)c1ccnc2ccc(OC)cc12` has an inhibition of 0.53%.
`CC(=O)N[C@H]1[C@H]([C@H](O)[C@H](O)CO)OC(O)(C(=O)O)C[C@@H]1O` (stereo partly drawn) has an inhibition of -0.14%.
The inhibition of `CCOC(=O)c1c(CSc2ccccc2)n(C)c2cc(Br)c(O)c(CN(C)C)c12` is reported as 2.05%.
